Measured values pooled from the literature.
Lines come from different studies, so protocols differ. Values joined by “and” are separate records of one study, mostly repeats; a detail may differ. ± gives the spread as reported.

Compound | target or system | test | test system | conditions | scale | measurement | result
O=C(c1ccc(-c2ccc3ncnc(Nc4ccc(OCc5cccc(F)c5)c(Cl)c4)c3c2)cc1)N1CCCCC1 | Plasmodium falciparum | parasite growth, SYBR Green | D6 | blood stage | – | EC50 | 250 nM
CC[C@H](C)CCCCC(=O)N[C@@H](CCN)C(=O)N[C@H](C(=O)N[C@@H](CCN)C(=O)N[C@H]1CCNC(=O)[C@H]([C@@H](C)O)NC(=O)[C@H](CCN)NC(=O)[C@H](CCN)NC(=O)[C@H](CC(C)C)NC(=O)[C@@H](CC(C)C)NC(=O)[C@H](CCN)NC1=O)[C@@H](C)O | Escherichia coli | daily serial passaging | ATCC 8739 | highest sub-MIC, 30 days | relative to: initial MIC | MIC fold change | 1.32
CCOC(=O)C1(Cc2c(F)cccc2F)Oc2cc(F)ccc2N(Cc2c(F)cccc2F)C1=O (stereo not shown) | Arabidopsis thaliana | root length, petri dish germination | Col-0, 1/2 MS medium | 200 µg/mL, 7 days, 22 °C, dark | – | inhibition | 39.8%
O=C1NC2(CC2)COc2ncc(F)cc2[C@H]2COCCN2c2ccn3ncc1c3n2 | – | – | Sprague-Dawley rat, male, thymus | oral, 2.5 mg/kg/day, 4 weeks, end of treatment | – | organ-to-body weight ratio | 0.139 ± 0.034%
Fc1cccc(COc2ccc(Nc3ncnc4ccc(-c5cccc(N6CCCCC6)c5)cc34)cc2Cl)c1 | Plasmodium falciparum | parasite growth, SYBR Green fluorescence | C235 (TM91C235), drug-resistant | – | – | EC50 | 1100 nM
CN(CCO)CCO.O=C(O)C(Cl)Cl | Xanthium sibiricum | – | – | 15 mg/mL, 21 days, post-emergence, greenhouse | – | herbicidal inhibition | -48%
C#CCN1C(=O)C(CC#C)(C(=O)OCC)Oc2ccccc21 (stereo not shown) | Arabidopsis thaliana | – | Col-0, seed germination, dark | 50 µg/mL, 7 days, 22 °C | – | root length inhibition | 100%
Cc1cc(C(=O)Nc2nc3cccc(C)c3n2[C@H]2CCCCN(C(=O)/C=C/CN(C)C)C2)ccn1 | Trypanosoma brucei | cell growth, Alamar Blue | 2T1 overexpressing Tb927.7.5770 | – | relative to: parental 2T1 | EC50 fold shift | 0.27 fold and 0.77 fold
C=CCN1C(=O)C(CC=C)(C(=O)OCC)Oc2cc(F)ccc21 (stereo not shown) | Arabidopsis thaliana | – | Col-0 | 50 µg/mL | – | seed germination inhibition | inhibited
Fc1cccc(COc2ccc(Nc3ncnc4ccc(-c5ccc(CN6CCOCC6)cc5)cc34)cc2Cl)c1 | Plasmodium falciparum | parasite growth, SYBR Green | D6 | blood stage | – | EC50 | 64 nM

Some of these lines once more:
Compound | target or system | test | test system | conditions | scale | measurement | result
Fc1cccc(COc2ccc(Nc3ncnc4ccc(-c5cccc(N6CCCCC6)c5)cc34)cc2Cl)c1 | Plasmodium falciparum | parasite growth, SYBR Green fluorescence | C235 (TM91C235), drug-resistant | – | – | EC50 | 1100 nM
